Results of several laboratories.
Each numbered part is a random draw from the data of one study; scales do not carry over between parts. Values joined by “and” are separate records of one study, mostly repeats; a detail may differ.
Chain of UniProt P22455 (whole entry, looked up): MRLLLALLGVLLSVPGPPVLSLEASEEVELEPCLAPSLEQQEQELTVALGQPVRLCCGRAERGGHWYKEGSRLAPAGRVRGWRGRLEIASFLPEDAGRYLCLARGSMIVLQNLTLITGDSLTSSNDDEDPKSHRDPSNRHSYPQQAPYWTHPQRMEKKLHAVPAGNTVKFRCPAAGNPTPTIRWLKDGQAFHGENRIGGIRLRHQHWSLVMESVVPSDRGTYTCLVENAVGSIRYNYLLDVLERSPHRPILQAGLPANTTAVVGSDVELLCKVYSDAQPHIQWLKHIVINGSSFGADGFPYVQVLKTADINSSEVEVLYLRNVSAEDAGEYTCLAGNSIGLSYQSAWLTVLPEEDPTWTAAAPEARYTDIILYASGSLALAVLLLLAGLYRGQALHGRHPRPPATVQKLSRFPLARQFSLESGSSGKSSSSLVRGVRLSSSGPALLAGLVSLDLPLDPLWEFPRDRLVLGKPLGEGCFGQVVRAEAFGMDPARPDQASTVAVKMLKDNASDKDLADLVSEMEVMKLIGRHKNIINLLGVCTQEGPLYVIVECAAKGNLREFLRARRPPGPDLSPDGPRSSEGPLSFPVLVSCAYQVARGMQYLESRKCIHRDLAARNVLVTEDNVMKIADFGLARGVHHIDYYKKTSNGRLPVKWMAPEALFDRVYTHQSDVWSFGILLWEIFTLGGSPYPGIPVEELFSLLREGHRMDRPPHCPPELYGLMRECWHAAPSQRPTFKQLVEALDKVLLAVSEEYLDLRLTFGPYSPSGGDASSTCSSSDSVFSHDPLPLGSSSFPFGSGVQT
Chain of UniProt Q9P1W9 (whole entry, looked up): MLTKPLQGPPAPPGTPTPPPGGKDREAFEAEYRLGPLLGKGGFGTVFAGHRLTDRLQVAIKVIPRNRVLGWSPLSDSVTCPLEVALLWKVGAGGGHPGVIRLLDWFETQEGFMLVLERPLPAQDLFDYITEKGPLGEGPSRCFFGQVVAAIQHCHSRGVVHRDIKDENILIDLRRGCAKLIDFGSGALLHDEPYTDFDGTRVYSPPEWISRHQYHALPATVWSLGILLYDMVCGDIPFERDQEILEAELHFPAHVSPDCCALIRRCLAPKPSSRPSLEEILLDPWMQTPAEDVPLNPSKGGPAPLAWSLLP
Chain of UniProt P25098 (whole entry, looked up): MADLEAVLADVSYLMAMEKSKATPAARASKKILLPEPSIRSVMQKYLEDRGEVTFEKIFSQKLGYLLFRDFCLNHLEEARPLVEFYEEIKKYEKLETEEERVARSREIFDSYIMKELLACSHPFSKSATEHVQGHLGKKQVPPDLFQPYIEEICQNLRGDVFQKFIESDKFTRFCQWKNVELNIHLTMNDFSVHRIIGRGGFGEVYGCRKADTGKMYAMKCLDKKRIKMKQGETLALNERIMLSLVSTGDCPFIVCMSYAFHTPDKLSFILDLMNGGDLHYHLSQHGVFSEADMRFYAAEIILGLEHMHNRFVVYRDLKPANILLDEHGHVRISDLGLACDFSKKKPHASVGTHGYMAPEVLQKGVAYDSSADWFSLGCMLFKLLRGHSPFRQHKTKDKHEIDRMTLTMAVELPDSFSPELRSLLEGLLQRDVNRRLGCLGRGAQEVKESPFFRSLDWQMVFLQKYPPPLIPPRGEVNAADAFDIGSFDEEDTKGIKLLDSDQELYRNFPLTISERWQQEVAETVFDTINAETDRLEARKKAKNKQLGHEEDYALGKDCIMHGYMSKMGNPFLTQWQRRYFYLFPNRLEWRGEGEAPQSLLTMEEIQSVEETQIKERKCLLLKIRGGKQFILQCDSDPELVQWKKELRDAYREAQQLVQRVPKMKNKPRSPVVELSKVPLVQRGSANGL
Chain of UniProt P29323 (whole entry, looked up): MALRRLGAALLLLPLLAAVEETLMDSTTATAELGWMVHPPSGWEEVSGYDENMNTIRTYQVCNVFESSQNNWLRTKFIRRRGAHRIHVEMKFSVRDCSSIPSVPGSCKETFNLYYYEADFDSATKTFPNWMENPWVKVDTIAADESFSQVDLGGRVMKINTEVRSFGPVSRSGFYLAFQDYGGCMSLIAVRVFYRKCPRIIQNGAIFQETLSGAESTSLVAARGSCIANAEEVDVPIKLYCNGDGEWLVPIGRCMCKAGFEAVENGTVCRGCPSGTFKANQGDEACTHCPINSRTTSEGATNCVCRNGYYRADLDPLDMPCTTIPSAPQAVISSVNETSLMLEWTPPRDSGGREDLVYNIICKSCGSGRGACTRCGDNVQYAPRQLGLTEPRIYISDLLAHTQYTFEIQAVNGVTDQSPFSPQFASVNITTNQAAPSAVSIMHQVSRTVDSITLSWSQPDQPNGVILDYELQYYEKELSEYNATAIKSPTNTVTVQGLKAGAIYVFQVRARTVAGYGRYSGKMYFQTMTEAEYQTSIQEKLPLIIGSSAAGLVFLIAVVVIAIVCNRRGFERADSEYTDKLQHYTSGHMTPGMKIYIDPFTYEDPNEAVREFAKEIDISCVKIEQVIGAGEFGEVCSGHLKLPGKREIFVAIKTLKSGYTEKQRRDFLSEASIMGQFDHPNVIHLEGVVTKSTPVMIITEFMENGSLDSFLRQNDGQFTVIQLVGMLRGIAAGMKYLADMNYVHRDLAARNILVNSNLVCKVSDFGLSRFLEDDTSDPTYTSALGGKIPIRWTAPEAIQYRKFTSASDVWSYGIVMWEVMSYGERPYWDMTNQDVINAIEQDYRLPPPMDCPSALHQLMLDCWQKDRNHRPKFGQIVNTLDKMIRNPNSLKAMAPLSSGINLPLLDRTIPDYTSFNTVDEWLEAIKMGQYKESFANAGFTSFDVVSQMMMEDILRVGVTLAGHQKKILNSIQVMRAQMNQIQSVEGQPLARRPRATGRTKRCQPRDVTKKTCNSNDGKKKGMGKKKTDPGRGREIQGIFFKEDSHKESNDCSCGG
Chain of UniProt Q9UQB9 (whole entry, looked up): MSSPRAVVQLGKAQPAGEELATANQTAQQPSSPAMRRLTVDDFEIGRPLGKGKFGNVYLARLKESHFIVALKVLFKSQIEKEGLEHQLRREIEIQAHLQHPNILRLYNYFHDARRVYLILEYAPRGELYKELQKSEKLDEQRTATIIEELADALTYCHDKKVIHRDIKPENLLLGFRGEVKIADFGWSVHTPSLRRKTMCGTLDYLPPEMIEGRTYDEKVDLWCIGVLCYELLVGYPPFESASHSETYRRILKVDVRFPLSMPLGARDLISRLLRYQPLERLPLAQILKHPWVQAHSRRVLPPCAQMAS

Block 1 — effect on: RNA clamping; technique: fluorescence polarization; concentration: concentration not given; notes: mean of two replicates; added: FAM-labelled poly r(AG)8 RNA
Target: Eukaryotic initiation factor 4A-III (Homo sapiens, UniProt P38919)
Chain of UniProt P38919 (whole entry, looked up): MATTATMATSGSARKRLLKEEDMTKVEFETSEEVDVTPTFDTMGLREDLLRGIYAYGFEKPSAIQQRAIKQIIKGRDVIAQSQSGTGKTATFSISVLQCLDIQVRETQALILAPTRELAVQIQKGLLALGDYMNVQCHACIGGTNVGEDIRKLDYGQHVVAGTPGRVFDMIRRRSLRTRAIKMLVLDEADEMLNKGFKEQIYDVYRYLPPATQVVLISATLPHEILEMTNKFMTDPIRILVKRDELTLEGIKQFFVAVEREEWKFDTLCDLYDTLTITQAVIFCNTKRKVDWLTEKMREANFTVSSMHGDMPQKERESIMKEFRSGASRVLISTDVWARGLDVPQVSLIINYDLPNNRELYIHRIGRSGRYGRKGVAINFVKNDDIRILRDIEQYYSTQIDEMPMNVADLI
Compound	fluorescence polarization change
COC(=O)[C@@H]1[C@@H](c2ccccc2)[C@]2(c3ccc(OC)cc3)Oc3cc(OC)cc(OC)c3[C@@]23OC(c2ccc(Cl)nc2)=N[C@@]13O	9.4 mP
COc1ccc([C@@]23Oc4cc(OC)cc(OC)c4[C@]2(O)c2nc(-c4ccncc4)[nH]c(=O)c2[C@H]3c2ccccc2)cc1	18 mP
COc1ccc([C@@]23Oc4cc(OC)cc(OC)c4[C@]2(O)c2nc(-c4ccc(Br)cc4)[nH]c(=O)c2[C@H]3c2ccccc2)cc1	2.2 mP
COc1ccc([C@@]23Oc4cc(OC)cc(OC)c4[C@]2(O)c2nc(C(C)C)[nH]c(=O)c2[C@H]3c2ccccc2)cc1	17.6 mP
COc1ccc([C@@]23Oc4cc(OC)cc(OC)c4[C@]2(O)[C@H](O)[C@H](C(=O)O)[C@H]3c2ccccc2)cc1	44.5 mP and 18.5 mP
COc1ccc([C@@]23Oc4cc(OC)cc(OC)c4[C@]2(O)c2nc(-c4cnccn4)[nH]c(=O)c2[C@H]3c2ccccc2)cc1	22.2 mP
COc1ccc([C@@]23Oc4cc(OC)cc(OC)c4[C@]2(O)c2nc(-c4ccc(Cl)cc4)[nH]c(=O)c2[C@H]3c2ccccc2)cc1	6.7 mP
COC(=O)[C@@H]1[C@@H](c2ccccc2)[C@]2(c3ccc(OC)cc3)Oc3cc(OC)cc(OC)c3[C@@]23N=C(C)N[C@@]13O	53.2 mP and 61.4 mP
CCOC(=O)COc1nc(-c2ccccc2)nc2c1[C@@H](c1ccccc1)[C@]1(c3ccc(OC)cc3)Oc3cc(OC)cc(OC)c3[C@]21O	4.7 mP
COc1ccc([C@]23Oc4cc(OC)cc(OC)c4[C@](O)([C@H](c4ccccc4)[C@H]2C(=O)NCCCCNC(=O)c2ccccc2)[C@H]3O)cc1	1.3 mP
COc1ccc([C@@]23Oc4cc(OC)cc(OC)c4[C@]2(OC)c2nc(-c4ccccc4)nc(OC)c2[C@H]3c2ccccc2)cc1	0.6 mP
COc1ccc([C@@]23Oc4cc(OC)cc(OC)c4[C@]2(O)[C@H](O)C[C@H]3c2ccccc2)cc1	45 mP

Block 2 — effect on: enzyme activity; mode: inhibitor; concentration: 0.5 µM; relative to: control
SMILES: N/C(=N\[N+](=O)[O-])N/N=C\c1ccc(-c2cccc([N+](=O)[O-])c2)o1
target	remaining activity
CSK (Homo sapiens, UniProt P41240)	98.5%
GRK6 (Homo sapiens, UniProt P43250)	98.3%
FGFR4 (Homo sapiens, UniProt P22455)	106%
PAK2 (Homo sapiens, UniProt Q13177)	103%
FLT3 (Homo sapiens, UniProt P36888)	99.3%
PRKCG (Homo sapiens, UniProt P05129)	96.4%
EPHA7 (Homo sapiens, UniProt Q15375)	97.9%
EPHB2 (Homo sapiens, UniProt P29323)	84.6%
SRPK3 (Homo sapiens, UniProt Q9UPE1)	100%
GRK2 (Homo sapiens, UniProt P25098)	98.9%
Aurora kinase C (AURKC, Homo sapiens, UniProt Q9UQB9)	90.5%
MYLK (Homo sapiens, UniProt Q15746)	92.5%
NUAK1 (Homo sapiens, UniProt O60285)	96.4%
PRKCE (Homo sapiens, UniProt Q02156)	90.5%
PIM2 (Homo sapiens, UniProt Q9P1W9)	106%
RPS6KA1 (Homo sapiens, UniProt Q15418)	86.3%
CSF1R (Homo sapiens, UniProt P07333)	94.5%
GSK3A (Homo sapiens, UniProt P49840)	108%
SGK1 (Homo sapiens, UniProt O00141)	92.4%
RPS6KB1 (Homo sapiens, UniProt P23443)	100%
BMX (Homo sapiens, UniProt P51813)	90.1%

Block 3 — cell line: mouse MPNST tumor cells; technique: high-content nuclear imaging; measured: cell number; concentration: 10 µM; time: 12 h; notes: mean of 2 replicates; relative to: plate mean; reading: higher = more cells
SMILES	nuclei count [z-score]
C[C@]12CC[C@@H]3c4ccc(OC(=O)N(CCCl)CCCl)cc4CC[C@H]3[C@@H]1CC[C@@H]2O	-0.28
CC(C)CC(N)C1(c2ccc(Cl)cc2)CCC1 (centres unmarked)	2.67
COc1ccc(CCN)cc1OC	1.48

Block 4 — effect on: enzyme activity; mode: inhibitor; concentration: 10 µM
Target: Calcium/calmodulin-dependent protein kinase type II subunit alpha (CAMK2A, Homo sapiens, UniProt Q9UQM7)
Chain of UniProt Q9UQM7 (whole entry, looked up): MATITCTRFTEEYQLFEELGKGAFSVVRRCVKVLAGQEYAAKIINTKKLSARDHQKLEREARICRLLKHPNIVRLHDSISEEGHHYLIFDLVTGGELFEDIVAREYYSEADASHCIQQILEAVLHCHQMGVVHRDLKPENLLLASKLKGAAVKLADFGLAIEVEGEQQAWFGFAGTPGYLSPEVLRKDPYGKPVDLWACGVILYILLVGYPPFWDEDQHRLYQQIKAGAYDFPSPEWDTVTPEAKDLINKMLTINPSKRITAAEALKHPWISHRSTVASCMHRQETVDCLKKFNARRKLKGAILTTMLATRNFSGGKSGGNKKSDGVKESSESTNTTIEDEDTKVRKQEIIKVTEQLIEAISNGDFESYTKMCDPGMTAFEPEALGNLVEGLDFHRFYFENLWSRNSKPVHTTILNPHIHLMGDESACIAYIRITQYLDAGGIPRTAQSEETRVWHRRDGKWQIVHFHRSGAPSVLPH
Compound	inhibition [%]
C=CCSSCC=C	23
COc1cc([C@H]2OC[C@@H]3[C@@H]2CO[C@H]3c2cc(OC)c(O[C@@H]3O[C@H](CO)[C@@H](O)[C@H](O)[C@H]3O)c(OC)c2)cc(OC)c1O[C@@H]1O[C@H](CO)[C@@H](O)[C@H](O)[C@H]1O	11
CC(C)(O)C(=O)Nc1ccc([N+](=O)[O-])c(C(F)(F)F)c1	2
CC(C)NCC(O)c1ccccc1Cl (centres unmarked)	3
COc1ccc(C=O)cc1O	21
CCC1=C[C@@H]2CN3CCc4c([nH]c5ccccc45)[C@@](C(=O)OC)(C2)[C@@H]13	32
COc1ccc(C(=O)O)cc1OC	-9
O=C([O-])c1ccc[n+]([C@@H]2O[C@H](CO)[C@@H](O)[C@H]2O)c1	-5

For quick reference, copied from above (block 2):
target	remaining activity
CSK (Homo sapiens, UniProt P41240)	98.5%
GRK6 (Homo sapiens, UniProt P43250)	98.3%
FGFR4 (Homo sapiens, UniProt P22455)	106%
PAK2 (Homo sapiens, UniProt Q13177)	103%
